Measured values from different studies.
Every numbered part comes from another study and shows a few of its results, in no order. Substitutions count along the parent as printed.

Set 1 — method: RNA Bind-n-Seq; form: RNA; matrix: in vitro; concentration: 200 nM; notes: whole 134-nt RNA, ends assumed; together with: 150 mM LiCl; relative to: input library; direction: higher = stronger binding; each molecule: 7-deaza-guanosine replaces G
Target: Ras GTPase-activating protein-binding protein 1, full length (G3BP1, Homo sapiens, UniProt Q13283)
UniProt Q13283, sequence (whole entry, looked up): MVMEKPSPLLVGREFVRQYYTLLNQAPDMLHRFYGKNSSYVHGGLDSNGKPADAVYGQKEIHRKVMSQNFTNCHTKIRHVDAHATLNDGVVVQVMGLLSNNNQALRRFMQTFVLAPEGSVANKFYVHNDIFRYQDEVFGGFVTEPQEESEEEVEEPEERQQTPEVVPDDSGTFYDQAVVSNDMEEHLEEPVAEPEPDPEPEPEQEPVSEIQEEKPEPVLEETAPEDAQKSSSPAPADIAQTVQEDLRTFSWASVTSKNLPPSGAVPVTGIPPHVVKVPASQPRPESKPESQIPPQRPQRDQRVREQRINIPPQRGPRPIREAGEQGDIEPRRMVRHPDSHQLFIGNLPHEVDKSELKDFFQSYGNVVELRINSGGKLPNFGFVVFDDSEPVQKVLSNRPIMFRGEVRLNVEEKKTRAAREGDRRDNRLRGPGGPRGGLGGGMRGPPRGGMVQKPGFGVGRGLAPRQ
Shared flanks, not repeated: GGGAGUUCUACAGUCCGACGAUC … UGGAAUUCUCGGGUGUCAAGG
| Sequence | log2 enrichment |
| --- | --- |
| CUGUGCUACACAUCGUAUGUACCGAAUCGGGGUUUUUGGGGAAAAAAAGGGGAAAAAGGGGAAAGUAUUAUGUUACGCCGUUCGGAUCUG | -0.232 |
| UUUCUAGGGAAGGUGCUUCUGGAAAAGUUGCUGAGGUCUUGUCCUAAGGUGAAUUCAGUAUAUGUUUUGGUGAGGCAGAAAGCUGGACAG | -2.1 |
| CAAGUCCUGUGCUACACAUCGUAUGUACCGAAUCGGGUGGGUUUUUUUGGGUGGGAAAGUAUUAUGUUACGCCGUUCGGAUCUGCACUUC | 0.567 |
| GUCCUGUGCUACACAUCGUAUGUACCGAAUCGGGGAAAGGGGUGGGGUUUUUUUGGGGAAAGUAUUAUGUUACGCCGUUCGGAUCUGCAC | 0.0134 |
| CCUGUGCUACACAUCGUAUGUACCGAAUCGGGAAAAAAGGGGAAAAAAGGGAAAAAAGGGAAAGUAUUAUGUUACGCCGUUCGGAUCUGC | 0.0313 |
| CAAGUCCUGUGCUACACAUCGUAUGUACCGAAUCGGGCCCGGCCCGGGGCCCGGGAAAGUAUUAUGUUACGCCGUUCGGAUCUGCACUUC | -1.58 |
| GUCCUGUGCUACACAUCGUAUGUACCGAAUCGGUUUUUUUGGUUUUUUUGGUUUUUGGAAAGUAUUAUGUUACGCCGUUCGGAUCUGCAC | -1.01 |
| UCCUCAAGUCCUGUGCUACACAUCGUAUGUACCGAAUCGGGUGGUGGUGGGGAAAGUAUUAUGUUACGCCGUUCGGAUCUGCACUUCCAG | 0.426 |
| AGUCCUGUGCUACACAUCGUAUGUACCGAAUCGGUUUUUGGUUUUUGGGGUUUUUGGGAAAGUAUUAUGUUACGCCGUUCGGAUCUGCAC | -0.177 |
| AAGUCCUGUGCUACACAUCGUAUGUACCGAAUCGGGGUGGGGUUUGGGGUUUGGGGAAAGUAUUAUGUUACGCCGUUCGGAUCUGCACUU | -1.17 |
| AGUCCUGUGCUACACAUCGUAUGUACCGAAUCGGGCCCCCGGGCCCCCGGCCCCCGGGAAAGUAUUAUGUUACGCCGUUCGGAUCUGCAC | -1.5 |

Set 2 — target: CCNE1, cyclin fold, Cln2 fusion (human); method: yeast growth competition, sequencing; matrix: yeast; notes: weak parent motif; relative to: not given; direction: higher = stronger binding
Starting sequence: E2F8 docking peptide (human); FVPQRKLEVSTED
| Variant | normalised enrichment score |
| --- | --- |
| FVPQAKAEVSTED [R5A L7A] | -0.421 |
| FVAQRKLEVSTED [P3A] | -0.142 |
| FVPQRKLEVSAED [T11A] | -0.394 |
| FVPQRKLEVATED [S10A] | -0.0268 |
| AVPQRKLEVSTED [F1A] | -0.322 |
| FVPQRKLEVSTAD [E12A] | -0.344 |
| FVPQKKLEVSTED [R5K] | -0.0967 |
| FVPQRKLELSTED [V9L] | -0.215 |
| FAPQRKLEVSTED [V2A] | -0.0825 |
| FVPQKKLELSTED [R5K V9L] | 0.00291 |
| FVPQRKAEVSTED [L7A] | 0.693 |

Set 3 — method: RNAcompete; form: RNA; matrix: in vitro; concentration: 20 nM; notes: 7-mer, probes averaged, single round; relative to: mean of 7-mers; direction: higher = stronger binding
Target: PABPC1L2, full length, GST fusion (mouse, UniProt A0ABA7IW68)
| Sequence | 7-mer Z-score |
| --- | --- |
| UUACUAA | 0.142 |
| CAAGCGC | -0.153 |
| AUACUCG | -0.233 |
| CCCGACG | -0.371 |
| AUAACGA | 0.115 |
| CCACUAU | -0.226 |
| AUACAAG | 0.133 |
| CGACUCA | -0.104 |
| AAUUACA | 0.153 |
| GCAGUUC | -0.168 |
| CGGCGGA | 0.269 |
| AAAGCCU | 0.501 |
| GCUGACG | -0.079 |
| CCCGAGG | -0.38 |
| CCGACAU | -0.119 |
| UUCCACA | -0.148 |
| UCGCUAC | -0.409 |
| UGCACCC | -0.193 |
| ACAAUCA | 0.16 |
| CACGCCA | -0.26 |
| GCGCAGU | -0.295 |

Set 4 — target: CREB5, bZIP domain (human); method: DHFR protein complementation; matrix: yeast; relative to: wild-type JUN-FOS pair; direction: higher = stronger binding
Notes: single substitutions, most at no-binding floor
Starting sequence: JUN, bZIP domain (human); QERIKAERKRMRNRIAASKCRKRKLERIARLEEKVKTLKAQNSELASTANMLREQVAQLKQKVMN; partner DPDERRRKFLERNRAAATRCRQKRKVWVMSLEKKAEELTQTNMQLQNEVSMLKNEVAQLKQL
| Variant | binding fitness [natural log] |
| --- | --- |
| A40P | -1.44 |
| A49K | -0.506 |
| S47R | -0.203 |
| S47K | -0.0867 |
| M51K | -0.255 |
| A49G | -1.16 |
| A46Y | -0.518 |
| T37S | -0.274 |
| N42Q | -0.593 |
| A46I | -0.207 |
| Q58A | -0.186 |
| Q58R | -0.479 |
| L31S | -1.22 |
| S43M | -0.284 |
| A40W | -0.628 |
| S47W | -0.503 |
| L31A | -0.692 |
| L59P | -1.31 |

Set 5 — method: DHFR PCA, deep sequencing; matrix: yeast; together with: (+)-ABA 0.11 µM; relative to: wild-type fitted maximum; direction: higher = stronger binding
Target: ABI1, truncated, D143A, DHFR fusion (Arabidopsis thaliana)
Notes: methotrexate growth selection, single substitutions
Starting sequence: PYL1, truncated, DHFR fusion (Arabidopsis thaliana); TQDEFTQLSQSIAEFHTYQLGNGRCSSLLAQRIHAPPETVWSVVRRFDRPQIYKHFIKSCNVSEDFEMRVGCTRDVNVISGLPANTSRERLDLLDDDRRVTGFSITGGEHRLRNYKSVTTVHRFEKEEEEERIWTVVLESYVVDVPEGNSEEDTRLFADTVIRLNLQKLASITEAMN; partner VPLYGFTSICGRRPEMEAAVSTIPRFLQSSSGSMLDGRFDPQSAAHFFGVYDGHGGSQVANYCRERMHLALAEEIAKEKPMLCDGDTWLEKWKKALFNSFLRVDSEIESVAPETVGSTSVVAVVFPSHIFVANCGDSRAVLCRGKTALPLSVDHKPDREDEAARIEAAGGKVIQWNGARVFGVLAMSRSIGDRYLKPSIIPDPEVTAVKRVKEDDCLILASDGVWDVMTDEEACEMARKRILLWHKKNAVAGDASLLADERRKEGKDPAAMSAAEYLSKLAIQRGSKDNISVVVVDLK
| Variant | relative binding score |
| --- | --- |
| G23S | 5.94% |
| F56G | 2.1% |
| I12F | 0.591% |
| E130A | 34.1% |
| K168W | 25.7% |
| C72M | 35.8% |
| I172E | 6.49% |
| L169E | 0.0345% |
| T86V | 44.9% |
| G107M | -1.76% |
| L112S | -5.97% |
| G102E | 1.11% |
| T39R | 24.7% |
| Y18L | 3.49% |
| V136T | 1.25% |
| E109V | 1.17% |
| A30I | 19.5% |

Set 6 — method: RNA Bind-n-Seq; form: RNA; matrix: in vitro; concentration: not given; relative to: input RNA pool; direction: higher = stronger binding
Target: RING finger protein unkempt homolog, zinc fingers 1-6, GST-SBP tag (UNK, Homo sapiens, UniProt Q9C0B0, residues 30-357)
Notes: RNA with constant flanks, human-mouse chimeric sites, ends assumed
Shared flanks, not repeated: GGGAGUUCUACAGUCCGACGAUC … CAACAGAGGAUUGAGCAUCA
Construct (chain): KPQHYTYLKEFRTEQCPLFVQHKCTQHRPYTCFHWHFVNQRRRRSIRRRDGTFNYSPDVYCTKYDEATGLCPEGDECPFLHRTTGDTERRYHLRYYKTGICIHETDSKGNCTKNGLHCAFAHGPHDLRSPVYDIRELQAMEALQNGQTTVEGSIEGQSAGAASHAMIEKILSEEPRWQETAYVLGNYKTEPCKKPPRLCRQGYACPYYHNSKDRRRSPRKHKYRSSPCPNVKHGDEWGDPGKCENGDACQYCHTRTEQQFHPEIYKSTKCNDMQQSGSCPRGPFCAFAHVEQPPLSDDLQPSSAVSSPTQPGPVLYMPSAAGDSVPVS
| Sequence | bound/input enrichment |
| --- | --- |
| GAAUCCUCCCGUGCAAAAUUUUGCAACACCAAGCUCACAGCAGCAGCUCCAUAGUCACAGUAGGGUAGUUUUGGGGCUCUGUGGCCAGGGUUUUAUUCACAUGCAGGUUUGGAAAAUGUA | 0.77 ratio |
| GAUCCACAGUGGUCUGAGGAGCAACUCAUUGCUGCAAAAUUCUGUUUUGCUGGCCUUCUUAUAGGCCAGACUGAAGUGGACAUCAUGAGUCAUGCCACACAAGCUAUUUUUGAAAUUCUG | 0.172 ratio |
| CUGAGGAUACCACUGAAGAGACCUUAAAAGAAUCAUUUUGACGGCUCGUUCGUGCAAGAAUAGUCACUGAUCGGGAAACUGGUUCUUCCAAAGGGUUUGGUUUUGUAAGACUUCAACGUG | 0.181 ratio |
| AGAUUCCCCCUCCUGAGGCCUUCUCCAAAGUUGGAGUCUCUUACAGAUGCCUCAUCCCCUGUUAGCGUUUUGGUCUGGACCACCCAGCCUUGGACAAUUCCCGCCAACCAGGCAAUUUGC | 0.566 ratio |
| AACAGAUUGUCUUUAAGCAUUCCAAGCGAGAAUGCUGGGGUGAUCAUUGUUGCCCAUGUGCCUUCUGACUGAGCUUUUAAUUAAUUGAUCCUUGAUGCUUUCCUUCACUCCAGAAUUGUU | 0.234 ratio |
| GAAACAUUUAAAUUUAAAGAAGCUGUUGUUCUAGGAAGUACGGACUUCCUAGAAGAUGAUAUAGAGAAAAUUGUAGAAGAACUGGGGAAAGAGUAUAAGGGCAACGCUUAUCAUUUAAUG | 1.69 ratio |
| GUUCGGCUCUGGGAUCAUGCCACAAUGACAGAAGUGAAAUCUCUAAAUUUUAAUAUGUCUGUUAGCAGCAUGGAGUAUAUUCCUGAAGGAGAGAUUUUGGUUAUUACUUAUGGACGAUCU | 0.356 ratio |
| AUCCAGUACUCCAAUCACAAAGAACUAAAGACAGAUAAUACAUUAAACCAACGUGCUCAGGCAGUUCUUCAAGCUGUGACAGCGGUCCAGACAGCAAAUACUCCUCUUAGUGGCACCACA | 0.357 ratio |
| CGCUUGGAUGAGGCGGGUGUCACAGAUGAAGUGCUGGAUUCUGCCAUGCAAGCCUUCCUUCUGGAGGUUAUCGUUAAACAUGGGGAGCCGGCACCUUAUUUAUGUAACAAAGAUCCGUUU | 0.0679 ratio |
| UAACCACAUCAAGAUGGUUGGAAAGCUGAAGCAGAACUUACUCUUGGCGUGUCUGGUGAUUAGUUCUGUGACCGUGUUUUACCUGGGCCAGCAUGCCAUGGAGUGCCAUCACCGAAUAGA | 0.256 ratio |
| GUUCGGCUCUGGGAUCAUGCCACAAUGACAGAAGUGAAAUCUCUGAAUUUUAAUAUGUCUGUUAGCAGUAUGGAAUAUAUUCCUGAAGGAGAGAUUUUGGUUAUAACUUAUGGACGAUCU | 1.12 ratio |

Single results of other studies
| Substance | target | test | test system | conditions | scale | quantity | result |
| --- | --- | --- | --- | --- | --- | --- | --- |
| PhoQ, residues 284 288 289 292 302 303 SSLVEF | PhoP, residues 12 14 15 18 19 MHTVL (Escherichia coli, UniProt P23836) | Sort-seq, measured: YFP reporter | E. coli | PhoQ-PhoP variant library, together with: 10 µM Mg2+ | relative to: high Mg2+ state, higher = stronger signaling | fold induction | 8.18 |

Repeated from above (set 3):
| Sequence | 7-mer Z-score |
| --- | --- |
| AUACAAG | 0.133 |
| AUAACGA | 0.115 |
| CCCGAGG | -0.38 |
| CGGCGGA | 0.269 |
| ACAAUCA | 0.16 |
